Experimental data collected from several papers.
Parts stem from different laboratories: compare values within a part only. Several values in a cell are separate wells, animals, samples, runs or records.
UniProt P06213, sequence (whole entry, looked up): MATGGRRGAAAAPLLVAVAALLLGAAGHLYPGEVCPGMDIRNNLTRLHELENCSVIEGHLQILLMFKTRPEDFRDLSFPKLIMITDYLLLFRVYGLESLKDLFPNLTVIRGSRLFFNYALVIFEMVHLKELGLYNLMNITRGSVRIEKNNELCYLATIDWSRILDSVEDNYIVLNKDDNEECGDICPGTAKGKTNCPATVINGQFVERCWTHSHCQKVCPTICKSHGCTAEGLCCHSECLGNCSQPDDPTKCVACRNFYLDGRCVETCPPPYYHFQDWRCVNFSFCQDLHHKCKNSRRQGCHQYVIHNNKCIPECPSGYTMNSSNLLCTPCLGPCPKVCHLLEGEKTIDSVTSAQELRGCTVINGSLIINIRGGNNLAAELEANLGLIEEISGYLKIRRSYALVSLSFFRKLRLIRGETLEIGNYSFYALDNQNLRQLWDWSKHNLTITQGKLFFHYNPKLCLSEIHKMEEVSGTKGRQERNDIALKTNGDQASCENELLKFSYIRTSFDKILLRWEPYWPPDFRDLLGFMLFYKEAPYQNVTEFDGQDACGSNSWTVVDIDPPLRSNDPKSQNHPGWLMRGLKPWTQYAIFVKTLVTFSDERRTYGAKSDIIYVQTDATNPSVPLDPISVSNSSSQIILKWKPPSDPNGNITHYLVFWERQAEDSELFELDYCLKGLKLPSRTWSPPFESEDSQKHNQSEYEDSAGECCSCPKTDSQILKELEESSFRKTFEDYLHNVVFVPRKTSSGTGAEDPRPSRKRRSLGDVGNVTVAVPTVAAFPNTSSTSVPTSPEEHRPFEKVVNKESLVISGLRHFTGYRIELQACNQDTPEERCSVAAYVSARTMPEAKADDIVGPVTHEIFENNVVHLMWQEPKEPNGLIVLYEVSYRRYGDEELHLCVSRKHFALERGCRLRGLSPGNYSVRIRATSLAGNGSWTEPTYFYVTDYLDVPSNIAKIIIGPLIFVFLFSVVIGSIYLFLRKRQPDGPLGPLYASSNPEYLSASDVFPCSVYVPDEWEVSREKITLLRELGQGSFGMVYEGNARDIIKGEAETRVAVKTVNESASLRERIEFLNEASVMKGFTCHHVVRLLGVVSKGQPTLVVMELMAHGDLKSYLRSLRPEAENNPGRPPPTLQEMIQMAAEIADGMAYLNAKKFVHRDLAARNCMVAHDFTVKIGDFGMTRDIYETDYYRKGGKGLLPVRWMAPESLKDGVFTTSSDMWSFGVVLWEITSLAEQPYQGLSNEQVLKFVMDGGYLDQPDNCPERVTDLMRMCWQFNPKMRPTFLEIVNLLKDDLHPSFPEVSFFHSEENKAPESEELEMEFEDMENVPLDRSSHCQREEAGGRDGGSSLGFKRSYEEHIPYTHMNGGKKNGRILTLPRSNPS
UniProt P53667, sequence (whole entry, looked up): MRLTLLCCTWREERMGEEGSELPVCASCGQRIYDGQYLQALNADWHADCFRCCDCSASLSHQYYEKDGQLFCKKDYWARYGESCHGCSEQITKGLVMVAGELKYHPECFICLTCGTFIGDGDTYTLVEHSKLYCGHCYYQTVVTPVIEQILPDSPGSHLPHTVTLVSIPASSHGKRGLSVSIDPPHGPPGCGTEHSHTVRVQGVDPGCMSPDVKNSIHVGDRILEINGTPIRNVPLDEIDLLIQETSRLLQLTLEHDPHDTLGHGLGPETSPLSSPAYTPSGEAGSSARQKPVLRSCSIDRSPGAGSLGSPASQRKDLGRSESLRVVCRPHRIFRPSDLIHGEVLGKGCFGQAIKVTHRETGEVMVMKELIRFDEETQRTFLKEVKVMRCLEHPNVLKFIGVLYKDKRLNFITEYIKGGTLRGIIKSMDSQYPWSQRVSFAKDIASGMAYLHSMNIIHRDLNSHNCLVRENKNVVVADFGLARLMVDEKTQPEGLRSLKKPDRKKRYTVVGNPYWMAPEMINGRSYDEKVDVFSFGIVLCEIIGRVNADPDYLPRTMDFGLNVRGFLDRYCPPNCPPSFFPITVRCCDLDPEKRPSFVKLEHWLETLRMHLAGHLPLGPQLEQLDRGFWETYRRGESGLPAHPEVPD
UniProt P06241, sequence (whole entry, looked up): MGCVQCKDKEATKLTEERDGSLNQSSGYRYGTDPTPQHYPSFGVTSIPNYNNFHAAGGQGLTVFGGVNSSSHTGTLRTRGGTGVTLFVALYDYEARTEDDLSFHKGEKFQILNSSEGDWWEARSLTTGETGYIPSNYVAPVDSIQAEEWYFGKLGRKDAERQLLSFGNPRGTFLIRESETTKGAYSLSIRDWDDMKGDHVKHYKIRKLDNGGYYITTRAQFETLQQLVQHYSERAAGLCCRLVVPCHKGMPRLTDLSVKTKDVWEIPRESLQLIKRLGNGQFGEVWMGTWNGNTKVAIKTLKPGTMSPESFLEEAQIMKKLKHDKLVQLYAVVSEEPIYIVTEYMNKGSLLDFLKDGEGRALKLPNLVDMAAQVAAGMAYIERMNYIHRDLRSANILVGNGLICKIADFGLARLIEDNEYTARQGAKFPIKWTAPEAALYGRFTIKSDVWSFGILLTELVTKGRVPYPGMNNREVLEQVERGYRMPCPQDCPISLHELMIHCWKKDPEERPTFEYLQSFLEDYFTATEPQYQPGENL
UniProt O00506, sequence (whole entry, looked up): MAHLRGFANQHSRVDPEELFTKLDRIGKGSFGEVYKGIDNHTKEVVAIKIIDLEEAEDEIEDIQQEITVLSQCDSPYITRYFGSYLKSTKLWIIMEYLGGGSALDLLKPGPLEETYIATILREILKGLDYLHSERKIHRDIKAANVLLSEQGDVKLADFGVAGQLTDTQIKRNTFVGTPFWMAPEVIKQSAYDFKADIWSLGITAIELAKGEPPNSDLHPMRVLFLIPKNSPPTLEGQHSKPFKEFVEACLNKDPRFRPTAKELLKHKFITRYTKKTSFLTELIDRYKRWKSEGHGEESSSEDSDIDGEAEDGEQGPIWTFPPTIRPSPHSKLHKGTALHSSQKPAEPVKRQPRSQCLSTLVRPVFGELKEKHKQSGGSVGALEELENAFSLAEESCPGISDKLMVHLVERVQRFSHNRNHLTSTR
UniProt P16591, sequence (whole entry, looked up): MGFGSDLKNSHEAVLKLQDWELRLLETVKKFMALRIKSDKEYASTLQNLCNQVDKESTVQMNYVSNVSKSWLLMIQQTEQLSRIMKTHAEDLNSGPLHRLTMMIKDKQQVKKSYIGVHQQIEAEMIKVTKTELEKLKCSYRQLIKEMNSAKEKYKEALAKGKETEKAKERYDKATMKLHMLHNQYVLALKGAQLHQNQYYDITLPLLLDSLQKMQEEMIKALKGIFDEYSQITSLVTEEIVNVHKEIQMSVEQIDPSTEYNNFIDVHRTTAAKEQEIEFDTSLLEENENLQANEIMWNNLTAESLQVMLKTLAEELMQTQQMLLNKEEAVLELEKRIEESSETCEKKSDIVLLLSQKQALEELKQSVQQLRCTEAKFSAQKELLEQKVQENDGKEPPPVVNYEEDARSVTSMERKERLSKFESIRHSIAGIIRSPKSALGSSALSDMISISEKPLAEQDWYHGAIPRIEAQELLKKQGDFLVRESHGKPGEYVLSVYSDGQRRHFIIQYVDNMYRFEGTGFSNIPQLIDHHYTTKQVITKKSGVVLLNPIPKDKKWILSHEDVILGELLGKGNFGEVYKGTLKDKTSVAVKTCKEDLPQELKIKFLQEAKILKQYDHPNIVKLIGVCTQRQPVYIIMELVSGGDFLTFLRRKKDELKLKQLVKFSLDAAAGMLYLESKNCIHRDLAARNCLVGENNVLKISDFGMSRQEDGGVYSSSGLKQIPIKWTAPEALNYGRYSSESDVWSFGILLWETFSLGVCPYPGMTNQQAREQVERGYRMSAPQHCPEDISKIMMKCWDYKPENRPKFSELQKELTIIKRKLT
UniProt Q08881, sequence (whole entry, looked up): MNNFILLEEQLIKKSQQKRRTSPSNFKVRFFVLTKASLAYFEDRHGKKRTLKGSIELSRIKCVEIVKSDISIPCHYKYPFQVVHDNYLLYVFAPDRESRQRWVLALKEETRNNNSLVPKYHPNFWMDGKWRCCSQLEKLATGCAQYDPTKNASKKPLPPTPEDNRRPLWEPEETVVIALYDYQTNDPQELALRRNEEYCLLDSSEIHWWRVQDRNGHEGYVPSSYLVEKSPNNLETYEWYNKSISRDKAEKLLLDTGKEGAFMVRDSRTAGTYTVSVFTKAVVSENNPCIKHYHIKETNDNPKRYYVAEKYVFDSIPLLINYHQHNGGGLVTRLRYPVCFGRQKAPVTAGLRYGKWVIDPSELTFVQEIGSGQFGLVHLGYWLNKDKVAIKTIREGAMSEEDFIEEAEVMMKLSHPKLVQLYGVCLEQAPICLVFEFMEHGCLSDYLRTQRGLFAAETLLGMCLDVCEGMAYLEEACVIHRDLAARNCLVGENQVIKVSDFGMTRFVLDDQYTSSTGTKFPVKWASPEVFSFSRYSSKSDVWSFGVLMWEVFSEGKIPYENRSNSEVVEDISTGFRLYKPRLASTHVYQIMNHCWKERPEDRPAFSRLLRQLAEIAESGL
UniProt P31749, sequence (whole entry, looked up): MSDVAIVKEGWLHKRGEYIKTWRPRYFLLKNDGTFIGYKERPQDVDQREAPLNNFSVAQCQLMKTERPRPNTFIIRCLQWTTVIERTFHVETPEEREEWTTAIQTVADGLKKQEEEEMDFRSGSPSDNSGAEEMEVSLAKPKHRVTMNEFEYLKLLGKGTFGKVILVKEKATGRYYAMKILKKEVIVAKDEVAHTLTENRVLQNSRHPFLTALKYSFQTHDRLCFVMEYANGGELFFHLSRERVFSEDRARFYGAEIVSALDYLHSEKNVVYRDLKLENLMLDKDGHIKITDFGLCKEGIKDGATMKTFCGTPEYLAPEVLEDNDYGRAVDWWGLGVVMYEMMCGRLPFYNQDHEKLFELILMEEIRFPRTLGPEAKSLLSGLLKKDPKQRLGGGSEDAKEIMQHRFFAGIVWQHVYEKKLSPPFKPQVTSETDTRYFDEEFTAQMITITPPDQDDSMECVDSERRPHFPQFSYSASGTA

Block 1
Cell line: A-375
Concentration: 100 µM
Time: 18 h
CO/N=C(\C(=O)N[C@@H]1C(=O)N2C(C(=O)O)=C(COC(N)=O)CS[C@H]12)c1ccco1 gave a viability of 102%.
CCC[C@H](N[C@@H](C)C(=O)N1[C@H](C(=O)O)C[C@@H]2CCCC[C@@H]21)C(=O)OCC has a viability of 102%.
N[C@H](C(=O)O)[C@H](O)c1ccc(O)c(O)c1 has a viability of 93.9%.
For CC12CC3CC(C)(C1)CC(N)(C3)C2, the viability was 76.2%.
For Cc1c(N(C)C)c(=O)n(-c2ccccc2)n1C, the viability was 92.2%.
For c1ccc2[nH]c(-c3cscn3)nc2c1, the viability was 95.8%.
CN[C@@H]1[C@@H](O[C@H]2O[C@H](CO)[C@@H](N)[C@H](O)[C@H]2O)O[C@H]2C[C@@H](N)[C@@H](O[C@H]3[C@H](O)[C@@H](O)[C@H](N)C[C@@H]3N)O[C@@H]2[C@@H]1O has a viability of 106%.

Block 2
Compound: O=C1CCC(N2Cc3cc(C4CCN(Cc5ccccc5)CC4)ccc3C2=O)C(=O)N1 (stereo not shown)
Matrix: plasma
The Cmax was 74.4 ng/mL (Sprague Dawley rat, male; oral, 3.0 mg/kg).
ICR mouse, male; intravenous, 1.0 mg/kg — Cmax: 184 ng/mL.
male ICR mice; intravenous, 1.0 mg/kg — Cmax: 237 ng/mL and 191 ng/mL.
The Cmax was 283 ng/mL (male ICR mice; oral, 3.0 mg/kg).
It gave 96.6 ng/mL for Cmax (Sprague Dawley rat, male; intravenous, 1.0 mg/kg).

Block 3
Cell line: normal-adjacent epithelial organoid
Effect on: cell viability
Technique: CellTiter-Glo
Species: human
Matrix: patient-derived organoid
Concentration: 1 µM
Baseline: DMSO
Cn1nc(C(F)(F)F)cc1-c1cnc(N2CCc3cc(S(=O)(=O)Nc4c(F)cc(Cl)cc4F)cc(N4CCCC4=O)c32)nc1 gave a viability of 105%.
With Cc1noc([C@H]2C[C@@H](c3ccc(C(F)(F)F)cc3)CN(C(=O)N3CCS(=O)(=O)C3)C2)n1 the viability was 104% and 99.2%.
CNC(=O)c1ccccc1Nc1cc(Nc2ccc(N3CCOCC3)cc2OC)ncc1C(F)(F)F has a viability of 22.5%.
With CNc1nc(-c2ccc3c(N)n[nH]c3c2)cc(N2C[C@@H](C(=O)NC3CCCCC3)CC[C@H]2C)n1 the viability was 86%.
The viability of CN1CCN(Cc2ccc(Nc3ncc(Cl)c(Nc4ccccc4S(=O)(=O)N(C)C)n3)cc2)CC1 is reported as 1.8% and 1.6%.
With CC1=C(C#N)C(c2ccc3c(c2)c(NC(=O)c2ccccc2C)nn3C)C(C#N)=C(C)N1 the viability was 80.9%.
With CNC(=O)c1cc(C(=O)N[C@H]2[C@@H]3COC[C@@H]32)cc2c1O[C@H](CF)[C@H]2c1ccccc1 the viability was 95.5%.
CCC(=O)N[C@@H]1CC[C@H](C(=O)N(C)c2ccc(-c3nc4ccccc4o3)cc2)C1 gave a viability of 94.8% and 108%.

Block 4
Structure (SMILES): COc1ccc(-c2cnc3c(-c4ccsc4)cnn3c2)cc1
Effect on: enzyme activity
Action: inhibitor
Concentration: 0.5 µM
Baseline: control
For NEK11 (Homo sapiens, UniProt Q8NG66): remaining activity read 93.3%.
For CDC42BPA (Homo sapiens, UniProt Q5VT25): remaining activity read 86.8%.
The remaining activity was 86.3% (FYN (Homo sapiens, UniProt P06241)).
For NLK (Homo sapiens, UniProt Q9UBE8): remaining activity read 74.5%.
It gave 80.4% for remaining activity (ALK (Homo sapiens, UniProt Q9UM73)).
The remaining activity was 88.8% (MARK3 (Homo sapiens, UniProt P27448)).
The remaining activity was 95.2% (ITK (Homo sapiens, UniProt Q08881)).
It gave 99.4% for remaining activity (MATK (Homo sapiens, UniProt P42679)).
The remaining activity was 89.5% (PRKX (Homo sapiens, UniProt P51817)).
FER (Homo sapiens, UniProt P16591) — remaining activity: 81.5%.
The remaining activity was 91.7% (SRC (Homo sapiens, UniProt P12931)).
For LIM domain kinase 1 (LIMK1, Homo sapiens, UniProt P53667): remaining activity read 71.2%.
The remaining activity was 96.9% (TAOK3 (Homo sapiens, UniProt Q9H2K8)).
FLT4 (Homo sapiens, UniProt P35916) — remaining activity: 94.1%.
PKN1 (Homo sapiens, UniProt Q16512) — remaining activity: 93.1%.
The remaining activity was 92.5% (Insulin receptor (INSR, Homo sapiens, UniProt P06213)).
It gave 92.4% for remaining activity (AKT1 (Homo sapiens, UniProt P31749)).
The remaining activity was 72.3% (FGR (Homo sapiens, UniProt P09769)).
For HIPK1 (Homo sapiens, UniProt Q86Z02): remaining activity read 99.8%.
STK25 (Homo sapiens, UniProt O00506) — remaining activity: 102%.
PASK (Homo sapiens, UniProt Q96RG2) — remaining activity: 79.5%.
It gave 84.9% for remaining activity (Cyclin-dependent kinase 3, with cyclin E (CDK3, Homo sapiens, UniProt Q00526)).

Block 5
SMILES: C[C@@H]1[C@H](O)[C@@H](C)/C=C/C=C/C=C/C=C/C=C/C=C/C=C/[C@H](O[C@@H]2O[C@H](C)[C@@H](O)[C@H](N)[C@@H]2O)C[C@@H]2O[C@](O)(C[C@@H](O)C[C@@H](O)[C@H](O)CC[C@@H](O)C[C@@H](O)CC(=O)O[C@H]1C)C[C@H](O)[C@H]2C(=O)O
Organism: Leishmania donovani
Strain: DD8
Matrix: promastigotes
The promastigote number was 4.45e+06 and 4.56e+06 (60 µM, 72 h).
It gave 1350 and 1560 for promastigote number (16660 µM, 24 h).
The promastigote number was 1350 and 1680 (66660 µM, 72 h).
30 µM, 72 h — promastigote number: 9.76e+06 and 9.65e+06.

A few entries again (block 1):
CO/N=C(\C(=O)N[C@@H]1C(=O)N2C(C(=O)O)=C(COC(N)=O)CS[C@H]12)c1ccco1 gave a viability of 102%.
CCC[C@H](N[C@@H](C)C(=O)N1[C@H](C(=O)O)C[C@@H]2CCCC[C@@H]21)C(=O)OCC has a viability of 102%.
N[C@H](C(=O)O)[C@H](O)c1ccc(O)c(O)c1 has a viability of 93.9%.
For CC12CC3CC(C)(C1)CC(N)(C3)C2, the viability was 76.2%.
For Cc1c(N(C)C)c(=O)n(-c2ccccc2)n1C, the viability was 92.2%.
For c1ccc2[nH]c(-c3cscn3)nc2c1, the viability was 95.8%.
CN[C@@H]1[C@@H](O[C@H]2O[C@H](CO)[C@@H](N)[C@H](O)[C@H]2O)O[C@H]2C[C@@H](N)[C@@H](O[C@H]3[C@H](O)[C@@H](O)[C@H](N)C[C@@H]3N)O[C@@H]2[C@@H]1O has a viability of 106%.
